Assay results pooled from the literature.
Numbered parts are unrelated; each lists some results of a single study. Substitutions count along the parent as printed.

Series 1
Target: Sal-like protein 4, full length isoform B (SALL4, Homo sapiens, UniProt Q9UJQ4-2, residues 1-616)
Technique: universal PBM
Molecule type: double-stranded DNA, one strand shown
Medium: in vitro
Tested at: not given
Setting: 8-mer, flanks averaged, mean of replicates
Direction: higher = stronger binding
Sequence | E-score
GATGCTGC | -0.0566
CTAAAGGC | -0.0501
CATTACTC | 0.102
CCAGCATC | -0.281
ACGCCACA | 0.0505
GATATCAC | 0.187
GCATTTCA | 0.104
AACCCTGC | -0.208

Series 2
Target: Ras GTPase-activating protein-binding protein 1, full length (G3BP1, Homo sapiens, UniProt Q13283)
Sequence of UniProt Q13283 (whole entry, looked up): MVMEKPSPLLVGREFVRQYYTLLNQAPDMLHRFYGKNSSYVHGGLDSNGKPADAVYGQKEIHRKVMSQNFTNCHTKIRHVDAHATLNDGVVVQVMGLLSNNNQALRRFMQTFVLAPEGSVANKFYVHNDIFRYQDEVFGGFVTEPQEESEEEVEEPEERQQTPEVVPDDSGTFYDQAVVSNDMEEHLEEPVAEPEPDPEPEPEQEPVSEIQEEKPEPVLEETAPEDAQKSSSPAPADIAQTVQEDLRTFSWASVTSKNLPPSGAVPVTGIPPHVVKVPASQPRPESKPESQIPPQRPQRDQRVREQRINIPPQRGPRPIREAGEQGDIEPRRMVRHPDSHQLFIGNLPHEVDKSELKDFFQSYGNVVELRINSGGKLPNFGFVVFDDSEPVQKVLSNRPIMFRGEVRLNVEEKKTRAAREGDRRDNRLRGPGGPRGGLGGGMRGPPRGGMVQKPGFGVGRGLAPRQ
Technique: RNA Bind-n-Seq
Molecule type: RNA
Medium: in vitro
Tested at: 200 nM
Setting: whole 134-nt RNA, ends assumed
Together with: 150 mM LiCl
Relative to: input library
Direction: higher = stronger binding
Library: 7-deaza-guanosine replaces G
Shared flanks, not repeated: GGGAGUUCUACAGUCCGACGAUC … UGGAAUUCUCGGGUGUCAAGG
Sequence | log2 enrichment
UCAAGUCCUGUGCUACACAUCGUAUGUACCGAAUCGGGUGGGUUUGGGUUUGGGAAAGUAUUAUGUUACGCCGUUCGGAUCUGCACUUCC | -1.05
GUCCUGUGCUACACAUCGUAUGUACCGAAUCGGAAAAAAGGGGAAAAAAGGAAAAAAGGAAAGUAUUAUGUUACGCCGUUCGGAUCUGCA | -0.343
AGUCCUGUGCUACACAUCGUAUGUACCGAAUCGGGGUUUUGGGGUUUUGGUUUUGGGAAAGUAUUAUGUUACGCCGUUCGGAUCUGCACU | -1.43
AGUCCUGUGCUACACAUCGUAUGUACCGAAUCGGGGCCCCGGCCCCGGGGCCCCGGGAAAGUAUUAUGUUACGCCGUUCGGAUCUGCACU | -2.48
GCAGGAAGUAAAAUCAAAUGGAAAUGCUUCGGAUAGUGGCAGGGGUGGGGGUUGCUAAGGAAAGGGUGGGAUGGGAGUGGGUAAAGAGUU | -0.174
UGGCCCUGGUGGCAUGCGGGGAGGAAGAGUUGGCCUCAUGGAUCGUGGUGGUCCCGGUGGAAUGUUCAGAGGUGGCCGUGGUGGAGACAG | 0.161
UGGCCCUGGUGGCAUGCGGGGAGGAAGAGGUGGCCUCAUGGAUCGUGGUGAUCCCGGUGGAAUGUUCAGAGGUGGCCGUGGUGGAGACAG | 0.0462
CAAGUCCUGUGCUACACAUCGUAUGUACCGAAUCGGGAGGGUGGGAAAAAAAGGGAAAGUAUUAUGUUACGCCGUUCGGAUCUGCACUUC | 0.169

Series 3
Target: Histone acetyltransferase KAT6A, both winged helices, GST fusion (KAT6A, Homo sapiens, UniProt Q92794, residues 1-181)
Technique: protein binding microarray
Molecule type: double-stranded DNA, one strand shown
Medium: in vitro
Tested at: not given
Setting: 8-mer, flanks averaged, mean of 2 arrays, mostly near background
Relative to: not given
Direction: higher = stronger binding
Target sequence (chain): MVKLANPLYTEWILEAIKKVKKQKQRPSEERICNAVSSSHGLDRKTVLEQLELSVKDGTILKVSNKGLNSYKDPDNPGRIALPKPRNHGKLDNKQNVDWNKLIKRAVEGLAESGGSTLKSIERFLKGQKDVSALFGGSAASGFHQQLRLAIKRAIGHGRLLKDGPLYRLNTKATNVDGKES
Sequence | E-score
CCGGGTGA | 0.26
TACCGATA | 0.0641
CAGCCGTC | 0.16
GAAAATAA | -0.0418
CGACGCAA | 0.232
AAGGCTCC | -0.125
CCATAAAC | -0.134
GAACCCAC | -0.0309

Series 4
Target: UBE2D2 UBC core domain (UniProt P62837)
Sequence of UniProt P62837 (whole entry, looked up): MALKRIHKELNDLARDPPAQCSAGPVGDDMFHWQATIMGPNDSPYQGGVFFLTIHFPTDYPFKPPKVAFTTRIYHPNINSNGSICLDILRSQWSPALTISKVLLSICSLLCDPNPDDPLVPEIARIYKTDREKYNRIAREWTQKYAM
Technique: yeast two-hybrid
Medium: yeast
Setting: mostly zero background
Relative to: not given
Direction: higher = stronger interaction
Molecule | lacZ reporter activity
MDDQGCPRCKTTKYRNPSLKLMVNVCGHTLCESCVDLLFVRGAGNCPECGTPLRKSNFRV (MNAT1 RING domain (UniProt P51948)) | 0
ALDRLEKLLRCSRCTNILREPVCLGGCEHIFCSNCVSDCIGTGCPVCYTPAWIQDLKI (BARD1 RING domain (UniProt Q99728)) | 0
NTAPSLTVPECAICLQTCVHPVSLPCKHVFCYLCVKGASWLGKRCALCRQEIPEDFLDK (RNF146 RING domain (UniProt Q9NTX7)) | 0

Series 5
Target: CCNB1, cyclin fold, Cln2 fusion (human)
Technique: yeast growth competition, sequencing
Medium: yeast
Setting: strong parent motif
Relative to: not given
Direction: higher = stronger binding
Parent: viral docking peptide; TSVRRALFTGGSD; partner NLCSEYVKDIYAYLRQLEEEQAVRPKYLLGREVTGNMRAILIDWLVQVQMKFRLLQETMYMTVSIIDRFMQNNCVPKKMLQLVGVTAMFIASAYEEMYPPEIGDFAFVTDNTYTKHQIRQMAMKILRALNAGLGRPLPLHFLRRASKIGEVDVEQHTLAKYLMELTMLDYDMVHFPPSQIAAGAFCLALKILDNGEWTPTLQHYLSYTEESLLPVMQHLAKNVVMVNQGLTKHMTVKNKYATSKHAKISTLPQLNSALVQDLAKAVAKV
Variant | normalised enrichment score
TSVRMALFTGGSD [R5M] | 1.06
TSVRRALFAGGSD [T9A] | 1.37
TSVRRAWFTGGSD [L7W] | 0.459
THVRRALFTGGSD [S2H] | 1.51
TSNRRALFTGGSD [V3N] | -0.1
TSVRRALFQGGSD [T9Q] | 2.56
TSVRRALFCGGSD [T9C] | 1.78
TSVRRFLFTGGSD [A6F] | 0.216
TSVRRVLFTGGSD [A6V] | 1.06
TSVVRALFTGGSD [R4V] | 3.25
TSVRRALFTGLSD [G11L] | 1.99
TVVRRALFTGGSD [S2V] | 1.25
TSVSRALFTGGSD [R4S] | 1.33
TSVRTALFTGGSD [R5T] | 0.313
TSVRRALFTNGSD [G10N] | 2.71
TSLRRALFTGGSD [V3L] | 0.372
TSVRQALFTGGSD [R5Q] | 1.03
TSVRRAAFTGGSD [L7A] | 0.181
TSVRRALFPGGSD [T9P] | 1.79
TSVRRALDTGGSD [F8D] | -0.0663
TMVRRALFTGGSD [S2M] | 1.54
TSVRRMLFTGGSD [A6M] | 0.347
TSVRRALFTGHSD [G11H] | 1.9
TSVRRALFTAGSD [G10A] | 2.18
TSVKRALFTGGSD [R4K] | 1.32

Mixed results
Molecule | target | effect on | molecule type | tested at | measurement | value
SFWFFHPPY | HLA class I histocompatibility antigen, A alpha chain, allele A*25:01 (Homo sapiens, UniProt P04439) | peptide-MHC binding | peptide | concentration not given | binding | inactive

Some of these lines once more (series 2):
Sequence | log2 enrichment
AGUCCUGUGCUACACAUCGUAUGUACCGAAUCGGGGCCCCGGCCCCGGGGCCCCGGGAAAGUAUUAUGUUACGCCGUUCGGAUCUGCACU | -2.48
UGGCCCUGGUGGCAUGCGGGGAGGAAGAGUUGGCCUCAUGGAUCGUGGUGGUCCCGGUGGAAUGUUCAGAGGUGGCCGUGGUGGAGACAG | 0.161
CAAGUCCUGUGCUACACAUCGUAUGUACCGAAUCGGGAGGGUGGGAAAAAAAGGGAAAGUAUUAUGUUACGCCGUUCGGAUCUGCACUUC | 0.169
GCAGGAAGUAAAAUCAAAUGGAAAUGCUUCGGAUAGUGGCAGGGGUGGGGGUUGCUAAGGAAAGGGUGGGAUGGGAGUGGGUAAAGAGUU | -0.174
GUCCUGUGCUACACAUCGUAUGUACCGAAUCGGAAAAAAGGGGAAAAAAGGAAAAAAGGAAAGUAUUAUGUUACGCCGUUCGGAUCUGCA | -0.343
AGUCCUGUGCUACACAUCGUAUGUACCGAAUCGGGGUUUUGGGGUUUUGGUUUUGGGAAAGUAUUAUGUUACGCCGUUCGGAUCUGCACU | -1.43
UCAAGUCCUGUGCUACACAUCGUAUGUACCGAAUCGGGUGGGUUUGGGUUUGGGAAAGUAUUAUGUUACGCCGUUCGGAUCUGCACUUCC | -1.05
